# Experimental data collected from several papers.
# Every numbered part comes from another study and shows a few of its results, in no order. Substitutions count along the parent as printed.

# Series 1 — method: DHFR PCA, deep sequencing; sample: yeast; with: (+)-ABA 1.4 µM; reference: wild-type fitted maximum; direction: higher = stronger binding
# Target: ABI1, truncated, D143A, DHFR fusion (Arabidopsis thaliana)
# Notes: methotrexate growth selection, single substitutions
# Starting sequence: PYL1, truncated, DHFR fusion (Arabidopsis thaliana); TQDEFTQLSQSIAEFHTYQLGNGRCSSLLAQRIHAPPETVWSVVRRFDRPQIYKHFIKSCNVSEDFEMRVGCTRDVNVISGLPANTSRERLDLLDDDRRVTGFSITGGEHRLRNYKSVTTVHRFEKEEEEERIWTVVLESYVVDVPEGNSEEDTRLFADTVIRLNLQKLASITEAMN
Variant,relative binding score
G108Q,-4.5%
M176K,41.7%
L82E,-2.03%
V43I,60.1%
K168H,60.2%
K168S,61.9%
M176E,35.2%
Q7L,58.9%
P83A,20.9%
R46W,4.72%
R32T,65.9%
H55Y,50.7%
R123I,3.27%

# Series 2 — method: protein binding microarray; molecule type: double-stranded DNA, one strand shown; sample: in vitro; concentration: not given; reference: not given; direction: higher = stronger binding
# Target: Histone acetyltransferase KAT6A, winged helix 2, GST fusion (KAT6A, Homo sapiens, UniProt Q92794, residues 85-181)
# Notes: 8-mer, flanks averaged, mean of 2 arrays, mostly near background
# Target sequence (chain): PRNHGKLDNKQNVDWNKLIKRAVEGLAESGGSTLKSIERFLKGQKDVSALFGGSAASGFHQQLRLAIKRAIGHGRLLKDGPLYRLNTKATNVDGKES
Oligonucleotide,E-score
AAGCAGTG,-0.00941
GGTGACGA,0.0168
CACCGCGA,-0.0327
AATAGCAT,0.0546
ATGACAGG,0.0114
ATCTATGC,-0.0206
GCTTGCCC,0.0515
CTTATGCA,0.0435
GAGGCGTA,0.0427
CCTTCCGC,0.0797
ACACCTCA,-0.165
GTAGATTA,0.104
ACCGTTTA,-0.116
CGCTGGCA,0.205

# Series 3 — target: CCNE2, cyclin fold, Cln2 fusion (human); method: yeast growth competition, sequencing; sample: yeast; notes: strong parent motif; reference: not given; direction: higher = stronger binding
# Starting sequence: RBL2 docking peptide (human); STTRRRLFVENDS; partner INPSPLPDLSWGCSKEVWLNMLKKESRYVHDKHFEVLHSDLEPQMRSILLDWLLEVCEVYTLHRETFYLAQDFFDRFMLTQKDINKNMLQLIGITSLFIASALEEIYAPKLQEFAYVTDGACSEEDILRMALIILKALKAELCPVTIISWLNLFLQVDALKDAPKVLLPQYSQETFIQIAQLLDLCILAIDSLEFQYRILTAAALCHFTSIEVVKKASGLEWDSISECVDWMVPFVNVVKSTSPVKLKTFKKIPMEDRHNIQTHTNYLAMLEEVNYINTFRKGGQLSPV
Variant,normalised enrichment score
STTRRRLFVEQDS [N11Q],4.43
STTRRRLFVEHDS [N11H],3.67
STTRRRLFVRNDS [E10R],1.49
STTRRELFVENDS [R6E],-0.015
STTRRRLFMENDS [V9M],4.22
STTRRRLEVENDS [F8E],0.404
STTRNRLFVENDS [R5N],0.144
STTRRRFFVENDS [L7F],0.0304
STTRRLLFVENDS [R6L],1.28
STTRYRLFVENDS [R5Y],0.8
STTRRRLKVENDS [F8K],0.377
STTRRRLFVENDR [S13R],4.36
STKRRRLFVENDS [T3K],1.02
STYRRRLFVENDS [T3Y],5.84
STTRRVLFVENDS [R6V],2.51
STTRRRRFVENDS [L7R],0.695
STTRRRLFPENDS [V9P],3.34
STTRRRLFVEWDS [N11W],4.22
STTRRRLFVENDY [S13Y],4.21

# Series 4 — method: RNAcompete; molecule type: RNA; sample: in vitro; concentration: 20 nM; notes: 7-mer, probes averaged, single round; reference: mean of 7-mers; direction: higher = stronger binding
# Target: PABPC1L2, full length, GST fusion (mouse, UniProt A0ABA7IW68)
# Construct (chain): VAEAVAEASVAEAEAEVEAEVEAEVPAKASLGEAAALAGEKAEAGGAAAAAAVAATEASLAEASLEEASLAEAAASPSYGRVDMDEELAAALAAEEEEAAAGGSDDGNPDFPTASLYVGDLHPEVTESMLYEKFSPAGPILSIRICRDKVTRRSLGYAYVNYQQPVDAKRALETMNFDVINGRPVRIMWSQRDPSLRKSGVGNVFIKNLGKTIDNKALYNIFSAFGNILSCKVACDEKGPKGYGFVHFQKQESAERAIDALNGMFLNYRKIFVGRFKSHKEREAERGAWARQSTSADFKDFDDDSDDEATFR
Oligonucleotide,7-mer Z-score
ACUGCUU,-0.275
GGUGUAC,-0.132
CUAUAAA,2.73
AAAGGGA,1.07
CGGGGGA,0.45
AUAAUAC,0.106
CAACCGG,-0.0736
CCGCUGG,-0.293
CCUCUCC,-0.421
UAUUUUC,-0.333
UAUUCAG,-0.244
ACGACGU,-0.0536
CGACCCA,-0.05
UCGAACG,-0.32
UACCUUA,-0.271
AAGCGGC,0.36
CCAUUGU,-0.311
CCAAAAA,28
UGACGAA,0.131

# Series 5 — method: protein-binding microarray; molecule type: double-stranded DNA, one strand shown; sample: in vitro; concentration: 250 nM; notes: 60-bp whole probe; with: salmon DNA 0.4 mg/ml; reference: random background probes; direction: higher = stronger binding; all sequences stand within: GCCTAGCAC … GTCTTGATTCGCTTGACGCTGCTG
# Target: Interferon regulatory factor 5, full length, phosphomimetic (IRF5, Homo sapiens, UniProt Q13568-2, residues 1-514, K96S/S451D/S453D/S456D/S462D)
Oligonucleotide,log fluorescence [z-score]
TGGAACCAGCGAACGAGCGGGTGCTAG,-0.539
TTAGGTTCCGCTTTCGGTTAGTGCTAG,9.36
TTAGGTCTTGGTCTCGGTTAGTGCTAG,0.482
TCAATTTGGCATATCTAACTGTGCTAG,0.302
GACTGTTTCCTTTTCCTGACGTGCTAG,1.45
TTAGCACTGGGGTATCGGTTAGTGCTA,2.38
GACGGTTTCGGACAGGGGACGTGCTAG,4.03
GACGGTCTCCTTGTCCTGACGTGCTAG,-0.312
TTAGGTATCGGACTGGGCTAGTGCTAG,1.46
GACGGACTGGGGTCTGGGGACGTGCTA,-0.557
GACGGTCTCGGACTGGGGAGGTGCTAG,-0.297
GACGGACTGGACTTTCGGAACGTGCTA,5.01
GACGATATCGGGTTTCGAGTCGTGCTA,4.28
GACGGTATCGGGACTGGTGACGTGCTA,1.04
TCAGGTTTCGACTATCGGTTAGTGCTA,9.25
GGCGGTATCCTTTTCCTGACGTGCTAG,0.26
GAAGAACTGAGACTGGAGACGTGCTAG,-0.216
CTGTTAAAGAATTAAGAAGGGTGCTAG,-0.12
GAGGATATCGGGTTTCGAGACGTGCTA,2.66
GACGTTTTCGACTTTCGGGACGTGCTA,7.22
TACGGTTCCCTTTTCCTGACGTGCTAG,0.446
TTAGGTATCGCGTTTCGGTTAGTGCTA,6.8

# Repeated from above (series 3):
Variant,normalised enrichment score
STKRRRLFVENDS [T3K],1.02
STYRRRLFVENDS [T3Y],5.84
STTRRVLFVENDS [R6V],2.51
STTRRRRFVENDS [L7R],0.695
STTRRRLFPENDS [V9P],3.34
STTRRRLFVEWDS [N11W],4.22
